Measurements collected from several papers.
Every numbered part comes from another study and shows a few of its results, in no order.

Study 1
Target: RING finger protein unkempt homolog, zinc fingers 1-6, GST-SBP tag (UNK, Homo sapiens, UniProt Q9C0B0, residues 30-357)
Sequence of UniProt Q9C0B0 (30-357, looked up): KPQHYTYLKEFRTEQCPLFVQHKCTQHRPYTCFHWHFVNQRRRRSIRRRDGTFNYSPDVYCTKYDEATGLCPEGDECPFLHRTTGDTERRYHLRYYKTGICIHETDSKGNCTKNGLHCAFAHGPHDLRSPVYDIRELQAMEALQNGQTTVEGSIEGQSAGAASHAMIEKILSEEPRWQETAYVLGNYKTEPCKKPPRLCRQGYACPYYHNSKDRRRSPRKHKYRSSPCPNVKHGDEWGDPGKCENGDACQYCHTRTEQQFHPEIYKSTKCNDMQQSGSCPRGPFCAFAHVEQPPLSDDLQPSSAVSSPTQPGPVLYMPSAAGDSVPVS
Method: RNA Bind-n-Seq
Molecule type: RNA
Matrix: in vitro
Concentration: not given
Setting: RNA with constant flanks, human and mouse sites, ends assumed
Relative to: input RNA pool
Reading: higher = stronger binding
Endpoint: bound/input enrichment
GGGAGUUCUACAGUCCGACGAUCAGUCUCACGAAUGUAGGAAACUCAUUUAGUGGUCCAGCUAAUCCUUUAGUGUCUAGAUCUAAUAAGUUUCAGAACUCGUCAGUGGAAGAUGAUGAUGAUGUUGUUUUUAUCGAACCUGUACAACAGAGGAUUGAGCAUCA: 1.13 ratio
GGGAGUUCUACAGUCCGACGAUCCCUGGCACCCGAGCCCCUGAUCCCACAGAUAGUCGAAGUCUUCAUAUUCAGCACCCAGGGUAUAGAUAGGGAGCCGGGACGCUCUCCUCAGGCAACACACAUUGCCCUUCUAGGUUUAGUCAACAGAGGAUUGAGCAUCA: 1.62 ratio
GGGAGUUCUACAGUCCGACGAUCAAUAAUCUCGCCCCAGUGGGUGCUUGUGAUGAUUUUGAGAGAGCUCUCCAAGGACCACUGUUUGCUUAUAUCCAGGAGUUUCGGUUCCUGCCCCCACCUCUCUAUUCAGAGAUUGAUCCACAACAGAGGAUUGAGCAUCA: 0.158 ratio
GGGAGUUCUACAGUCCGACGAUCGCCAGUACAUCUGACAUUGAAGAGAAGGAGAACAGAGAGUCUUCAAGUUUGCGAACAAGUAGUUCUUACACAAGAAGAAAAUGGGAAGAUGAUCUUAAAAAGAAUAGUUCGAUCAAUGAACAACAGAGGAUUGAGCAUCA: 0.359 ratio
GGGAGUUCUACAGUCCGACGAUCGUGCAUUCUCCUCACGCUAUUGUGAGGAUGAAGUUUCUGCUGCUGCAGCAGAAGUACCUGGAAUACCUGGAGGACGGCAAGGUCCUGGAGGCACUUCAAGUUCUACGCUGCGAACUGACGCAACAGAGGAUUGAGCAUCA: 0.116 ratio
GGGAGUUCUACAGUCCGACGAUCCACUAAGUCUUUAAAGGUCUUCUGGGGAAAGGACCUAGGGGACUGGAAAUCCAAGCCCGGAGCAAGUGGCUGACUUCUCCUGGAUCUUUUCCCACCUCGGUAUUUUCCCUUGGAUAUUAACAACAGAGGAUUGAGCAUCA: 0.119 ratio
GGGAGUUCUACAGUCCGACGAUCCCAAUUACGGGGCCUGAGUAUGCAACCCCAAUCAUCAUGGACAUGUCAGGGCACCCCACAACUUCAGUUGGUCAGCCCUCCACAUCCACUUUCAAGGCUACGGGGAACCAACCUCCCCCACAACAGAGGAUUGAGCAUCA: 0.116 ratio
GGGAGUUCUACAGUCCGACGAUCUGCUCUGGAAGCUGCUAUUGCCCGGUAAGAAACCAGUAUCUGGAAAAGGAGCAGCGUCGUCAGUACCUCCUACGUUUGAAAAACAGCCAGCUGGAGAAGACCUACGGGGAGAUGGCCAAGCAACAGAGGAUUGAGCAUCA: 0.147 ratio
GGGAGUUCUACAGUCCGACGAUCGACAGUGAAGAAGAAAUUAGAGAAGCAUUCCGUGUGUUUGAUAAGGAUGGCAAUGGCUAUAUUAGUGCUGCAGAACUUCGCCAUGUGAUGACAAACCUUGGAGAGAAGUUAACAGAUGAACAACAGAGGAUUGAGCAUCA: 1.17 ratio
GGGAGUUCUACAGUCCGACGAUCAAGAAACAAAUCAUAUUGUGUAUGGAAGAAUUAGAACACUCUCCAGAUACAAGCUUUGAAAGAGAUGUGGUGUGUGAAGAUGAAAGUGCUUUUUGUUUAUCACUGGAGAACAUUGCAACACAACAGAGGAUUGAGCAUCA: 0.166 ratio
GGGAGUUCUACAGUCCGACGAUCAGUGUUAAAUUUAACCCAAUUGAGACAUUUCUCUUGGGAAGUUGUGCAUCUGACAGGAAUAUAGUACUGUACGAUAUGAGGCAAGCUACUCCUUUGAAAAAGGUUAUCUUAGAUAUGAGACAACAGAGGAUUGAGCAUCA: 0.396 ratio

Study 2
Target: Fragile X messenger ribonucleoprotein 1, C-terminal low-complexity region (Fmr1, Mus musculus, UniProt P35922)
Method: RNA Bind-n-Seq
Molecule type: RNA
Matrix: in vitro
Concentration: 200 nM
Setting: whole 134-nt RNA, ends assumed
Added: 150 mM LiCl
Relative to: input library
Reading: higher = stronger binding
Endpoint: log2 enrichment
Each molecule: 7-deaza-guanosine replaces G
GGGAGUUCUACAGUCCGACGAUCCCUCAAGUCCUGUGCUACACAUCGUAUGUACCGAAUCGGGUGGGUGGGAGGGAAAGUAUUAUGUUACGCCGUUCGGAUCUGCACUUCCAGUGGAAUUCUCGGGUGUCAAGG: 0.0872
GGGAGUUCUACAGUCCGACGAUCUGGGAGGUGGAUUUUGUUUAUUUUUUUAGCUCAUUUCCAGGGGUGGGAAUUUUUUCUUAAUAUGUGUCAUGAAUAAAGUUGUUUUUGAAAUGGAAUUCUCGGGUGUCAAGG: -0.558
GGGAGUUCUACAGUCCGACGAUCGUCCUGUGCUACACAUCGUAUGUACCGAAUCGGGUUUGGGAAAAAGGGUUUUUUUGGGAAAGUAUUAUGUUACGCCGUUCGGAUCUGCACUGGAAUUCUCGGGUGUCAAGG: -1.67
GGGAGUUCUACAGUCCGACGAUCUCCUCAAGUCCUGUGCUACACAUCGUAUGUACCGAAUCGGAGGAAAGGUGGAAAGUAUUAUGUUACGCCGUUCGGAUCUGCACUUCCAGCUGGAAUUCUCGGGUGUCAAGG: -1.92
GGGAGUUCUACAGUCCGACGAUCUUGCCCUGGUGGCAUGCGGGGAGGAAGAGGUGGCCUCAUGGAUCGUGGUGGUCCCGGUGGAAUGUUCAGAGGUGGCCGUGGUGGAGACAGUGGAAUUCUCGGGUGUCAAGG: 0.26
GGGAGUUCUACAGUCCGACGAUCCCUGUGCUACACAUCGUAUGUACCGAAUCGGUUUUUUUGGGGUUUUUUUGGUUUUUUUGGGAAAGUAUUAUGUUACGCCGUUCGGAUCUGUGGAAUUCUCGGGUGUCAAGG: -0.173
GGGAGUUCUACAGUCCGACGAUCCACAGACAACACGCACCCACACAGACACAGAGGGAAGGGGUUGGGAUCGGGACAGGGUGCACAGCAGGGCGGGGUAGGACCCCAGCCCCUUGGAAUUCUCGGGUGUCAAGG: 0.0598
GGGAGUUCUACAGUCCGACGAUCUCAAGUCCUGUGCUACACAUCGUAUGUACCGAAUCGGAAGGGGAAGGGGAAGGGGAAAGUAUUAUGUUACGCCGUUCGGAUCUGCACUUCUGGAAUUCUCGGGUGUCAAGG: -0.0796
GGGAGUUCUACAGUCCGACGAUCCAAGUCCUGUGCUACACAUCGUAUGUACCGAAUCGGGGUUUGGGGUGGGGAGGGGAAAGUAUUAUGUUACGCCGUUCGGAUCUGCACUUCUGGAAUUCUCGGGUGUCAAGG: -0.13
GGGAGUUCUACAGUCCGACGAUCACCAUGCAGGUGGGCAUUUUUGGGAAGUGGGGCAAGGGGGGGAUAGGGAGGGGGGUAACACUUUGGGAACAGGUGGUCCCAGGUCGUUUCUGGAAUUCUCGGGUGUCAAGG: 1.41
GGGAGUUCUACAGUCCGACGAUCUGGGAGGUGGAUUUUGUUUAUUUUUUUAGCUCAUUUCCAGGGGUGGGAAUUUUUUUUUAAUAUGUGUCAUGAAUAAAGUUGUUUUUCAAAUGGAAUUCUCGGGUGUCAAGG: 0.448

Study 3
Target: Histone acetyltransferase KAT6A, winged helix 2, GST fusion (KAT6A, Homo sapiens, UniProt Q92794, residues 85-181)
Method: protein binding microarray
Molecule type: double-stranded DNA, one strand shown
Matrix: in vitro
Concentration: not given
Setting: 8-mer, flanks averaged, mean of 2 arrays, mostly near background
Relative to: not given
Reading: higher = stronger binding
Endpoint: E-score
Construct (chain): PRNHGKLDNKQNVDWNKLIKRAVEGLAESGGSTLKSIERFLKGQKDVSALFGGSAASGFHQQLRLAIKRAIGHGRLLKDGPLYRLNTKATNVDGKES
GACGTCTA: -0.277
CCATGTCA: -0.148
CACTTTAC: -0.203
CACATCCG: 0.0343
CTGCGTGC: 0.213
ACGTCACC: -0.171
GTGTATAA: -0.111
AGAGACAG: -0.0543
AAGAACCT: 0.0151
CGTTACGC: -0.036
ATCGTGGA: -0.029
CCCGTGGA: 0.113
ATATACCG: 0.0789
ACCCTGAA: 4e-05
AATAACAT: -0.044
TGAAAGAA: 0.0768
ACAGGCTG: -0.0794
TCCCTTCA: -0.0348
AGGCTCCA: -0.0645

Study 4
Target: Interferon regulatory factor 7, full length, phosphomimetic (IRF7, Homo sapiens, UniProt Q92985, residues 1-503, S101K/S471D/S472D/S475D/S476D/S477D/S483D/S484D/S487D)
Method: protein-binding microarray
Molecule type: double-stranded DNA, one strand shown
Matrix: in vitro
Concentration: 250 nM
Setting: 60-bp whole probe
Added: salmon DNA 0.4 mg/ml
Relative to: random background probes
Reading: higher = stronger binding
Endpoint: log fluorescence
All sequences stand within: GCCTAGCAC … GTCTTGATTCGCTTGACGCTGCTG
Target sequence (chain): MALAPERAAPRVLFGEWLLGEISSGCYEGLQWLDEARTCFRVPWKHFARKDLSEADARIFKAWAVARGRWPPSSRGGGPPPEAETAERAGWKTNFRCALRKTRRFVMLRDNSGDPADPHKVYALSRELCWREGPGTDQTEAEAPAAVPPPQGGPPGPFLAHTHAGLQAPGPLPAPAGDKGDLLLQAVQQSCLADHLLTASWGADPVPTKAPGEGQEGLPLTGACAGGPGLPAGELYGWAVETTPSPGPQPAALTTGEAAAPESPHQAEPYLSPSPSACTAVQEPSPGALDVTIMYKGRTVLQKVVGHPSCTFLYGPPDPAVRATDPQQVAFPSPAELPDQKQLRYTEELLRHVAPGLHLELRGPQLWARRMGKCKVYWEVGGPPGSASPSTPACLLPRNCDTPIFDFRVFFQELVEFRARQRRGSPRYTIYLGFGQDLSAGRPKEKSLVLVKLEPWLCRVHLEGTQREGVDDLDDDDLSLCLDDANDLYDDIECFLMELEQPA
TCAGCTTTCCAATTCTCACTGTGCTAG: 0.779 z-score
TCATACTTCTCTTTTTGACTGTGCTAG: 1.09 z-score
GACGGTATCGGGTTTCGAGACGTGCTA: 4.18 z-score
TCAGTTACCCATCTCAAACTGTGCTAG: 0.745 z-score
GACGCTTCCGGTTTCGGGACGTGCTAG: 4.38 z-score
TGAGGACTGGACTTTCGGTTAGTGCTA: 0.218 z-score
GTAGGACTGGGGTATCGGTTAGTGCTA: -0.0669 z-score
TTAGATTTCCGGTATCGATTAGTGCTA: 1.95 z-score
GACGACTCCAGTTTCGAGACGTGCTAG: 3.55 z-score
TCGCACACATACGGCTTCTCGTGCTAG: -0.0944 z-score
TTAGGTATCGGGTATGGGTTAGTGCTA: 0.655 z-score
TTAGGTATCAACTATCGGTTAGTGCTA: 0.00674 z-score
TTAGGTCTCGATCTCGGTTAGTGCTAG: 1.85 z-score
TGTGGTCTGTTTCTGATATGGTGCTAG: 0.502 z-score
GGACACGGATGCGGTCTGCCGTGCTAG: -0.0882 z-score
GACGGTATCGGGACTGGGGACGTGCTA: -0.261 z-score
GGATGTTGCAAATATTGCTAGGTGCTA: -0.637 z-score
TCAGTTTTGTGTCTGGGACTGTGCTAG: 0.584 z-score
TTAGGTATCGGTATCGGGTAGTGCTAG: 2.03 z-score
GACGAACTGGGGTATCGAGAAGTGCTA: -0.232 z-score
GACGGACTGGGATTCGGGACGTGCTAG: -0.258 z-score
GACCATATCAGTATCGAGACGTGCTAG: 0.636 z-score
GACGGTCTCGGTTTCGGAACGTGCTAG: 10.4 z-score

Excerpt of the above (study 4):
TCATACTTCTCTTTTTGACTGTGCTAG: 1.09 z-score
GACGGTATCGGGTTTCGAGACGTGCTA: 4.18 z-score
TCAGTTACCCATCTCAAACTGTGCTAG: 0.745 z-score
GACGCTTCCGGTTTCGGGACGTGCTAG: 4.38 z-score
TGAGGACTGGACTTTCGGTTAGTGCTA: 0.218 z-score
GTAGGACTGGGGTATCGGTTAGTGCTA: -0.0669 z-score
